Measurements from different studies.
Protocols differ between the studies behind these lines. “And” joins repeats or separate records; there may be more than shown. Numbers after ± are the reported error.
HSP90AB1: Heat shock protein HSP 90-beta (HSP90AB1, Homo sapiens, UniProt P08238)
TNIK: TRAF2 and NCK-interacting protein kinase (TNIK, Homo sapiens, UniProt Q9UKE5)

Structure (SMILES) | tested on | assay | test system | setting | measurement | value
CC[C@H](C)[C@H](NC(=O)[C@H](CC(=O)O)NC(=O)[C@H](CCCNC(=N)N)NC(=O)[C@H](C)NC(=O)c1ccc2c(c1)C(=O)OC21c2ccc(N(C)C)cc2Oc2cc(N(C)C)ccc21)C(=O)N[C@@H](Cc1c[nH]cn1)C(=O)N[C@@H](Cc1c[nH]cn1)C(=O)N[C@H](C(=O)N[C@@H](CC(=O)O)C(=O)N[C@@H](Cc1ccc(O)cc1)C(=O)N[C@@H](Cc1ccc(OP(=O)(O)O)cc1)C(=O)N[C@@H](CCCCN)C(=O)N[C@@H](CCCCN)C(=O)N[C@H](C(=O)N[C@H](C(=O)N[C@@H](CC(N)=O)C(=O)NCC(=O)N[C@@H](CCCNC(=N)N)C(=O)N[C@@H](CC(=O)O)C(=O)O)[C@@H](C)O)[C@@H](C)O)[C@@H](C)CC | Tyrosine-protein kinase ABL2, SH2 domain (ABL2, Homo sapiens, UniProt P42684) | binding |  |  | Kd | 1.32 µM
CCCc1cc2cc(-n3nc(CC)c4c3CC(C)(C)CC4=O)cc(N3CCC(O)CC3)c2c(=O)[nH]1 | HSP90AB1 | fluorescence polarization |  | 24 h, 4 °C, with: FITC-geldanamycin tracer | Kd | 0.225 µM
N[C@H](Cc1ccccc1)P(=O)(O)O | PAL1 (Petroselinum crispum, UniProt P24481, Y110F) | ITC |  |  | Kd | 6.2 µM
CC(C)[C@@H]1NC(=O)[C@H](Cc2ccccc2)NC(=O)CSC[C@@H](C(N)=O)NC(=O)[C@H](CCC(=O)O)NC(=O)[C@H](CO)NC(=O)[C@H](Cc2c[nH]c3cccc(Cl)c23)NC(=O)[C@H](C(C)C)NC(=O)[C@H](C(C)C)NC(=O)[C@H](Cc2ccc(O)cc2)NC(=O)[C@H](CC(=O)O)NC(=O)[C@H](Cc2c[nH]c3ccccc23)NC(=O)[C@H](Cc2ccc(O)cc2)NC(=O)[C@H](Cc2c[nH]c3ccccc23)NC(=O)[C@H](CCC(=O)O)NC1=O | Interleukin-1 receptor-like 2, D1-D2 domains (IL1RL2, Homo sapiens, UniProt Q9HB29) | SPR |  | IL-36R domains D1-D2 | Kd | 0.106 ± 0.005 µM
CC[C@H](C)[C@H](NC(=O)[C@H](CCC(=O)O)NC(=O)[C@H](CCCNC(=N)N)NC(=O)[C@H](C)NC(=O)[C@H](Cc1c[nH]c2ccccc12)NC(=O)[C@H](CCC(N)=O)NC(=O)[C@H](CCC(=O)O)NC(=O)[C@H](CCC(=O)O)NC(=O)[C@H](CCC(=O)O)NC(=O)CNC(=O)[C@H](CCCNC(=N)N)NC(=O)CCCCCNC(=O)CCNC(=S)Nc1ccc2c(c1)C(=O)OC21c2ccc(O)cc2Oc2cc(O)ccc21)C(=O)NCC(=O)N[C@@H](C)C(=O)N[C@@H](CCC(N)=O)C(=O)N[C@@H](CC(C)C)C(=O)N[C@@H](CCCNC(=N)N)C(=O)N[C@@H](CCCNC(=N)N)C(=O)N[C@@H](CCSC)C(=O)N[C@@H](C)C(=O)N[C@@H](CC(=O)O)C(=O)N[C@@H](CC(=O)O)C(=O)N[C@@H](CC(C)C)C(=O)N[C@@H](CC(N)=O)C(=O)O | Bcl-2-like protein 1 (BCL2L1, Homo sapiens, UniProt Q07817) | binding, fluorescence polarization |  | with: fluorescein-labelled BH3 peptide | Kd | 0.103 µM
C[C@H]1NC(=O)[C@H](CCC(=O)N[C@@H](CCCCN)C(N)=O)NC(=O)[C@@H](C)NC(=O)[C@H](Cc2ccc(F)cc2)NC(=O)[C@H](Cc2c[nH]c3ccccc23)NC(=O)[C@H](CCCNC(=N)N)NC(=O)[C@H](Cc2ccc(O)cc2)NC(=O)[C@H](CCCNC(=N)N)NC1=O | Lysine--tRNA ligase (KARS1, Homo sapiens, UniProt Q15046) | binding |  |  | Kd | 2 µM
CC12CCC(=O)C=C1CCC1C2C=C(c2cccnc2)C2(C)C(=O)CCC12 (stereo not shown) | 7-alpha-hydroxycholest-4-en-3-one 12-alpha-hydroxylase (Homo sapiens, UniProt Q9UNU6, W281F) | binding, spectral titration |  |  | Kd | ~32 µM and 32.1 µM
C=C1[C@@H](O)C[C@H]2C(C)(C)C[C@H](C)C[C@]2(C)[C@H]1C[C@H](O)[C@H]1CC(=O)NC1=O | ribosome, Saccharomyces cerevisiae, 80S, E site | smFRET |  | pH 7.5, 23 °C, 5 mM MgCl2 | Kd | 1.4 ± 0.75 µM
C=C1NC(=O)C(=C)NC(=O)[C@H](CCCCN)NC(=O)[C@H](CC(C)C)NC(=O)[C@H]([C@@H](C)O)NC(=O)[C@H](CCCCN)NC(=O)[C@H](Cc2ccc(O)cc2)NC(=O)[C@H]([C@@H](C)CC)NC(=O)[C@H](Cc2ccccc2)NC(=O)CNC(=O)[C@H](Cc2c[nH]c3ccccc23)NC(=O)c2ccc(-c3nc(C(=O)OC)cs3)nc2-c2csc(n2)C(=C)NC(=O)CNC1=O | TNIK | binding, SPR |  |  | Kd | 0.006 µM
O=C(N[C@@H]1c2ccccc2C[C@H]1N1CCCC1)c1ccc(-c2ccnc3[nH]ccc23)nc1 | cGMP-dependent protein kinase 1 (PRKG1, Homo sapiens, UniProt Q13976) | binding, competition with immobilised ligand |  |  | Kd | 0.16 µM
CSCC[C@H](NC=O)C(=O)N[C@@H](CCCNC(=N)N)C(=O)N[C@H](C(=O)NCC(=O)N[C@@H](CC(N)=O)C(=O)N[C@@H](C)C(=O)N[C@@H](CC(N)=O)C(=O)NCC(=O)NCC(=O)N[C@@H](CCCCNC(=S)Nc1ccc2c(c1)C(=O)OC21c2ccc(O)cc2Oc2cc(O)ccc21)C(=O)O)[C@@H](C)O | Uncharacterized protein YejA (yejA, Escherichia coli, UniProt P33913, Y155F) | binding, fluorescence polarisation |  | YejA variant Y137F | Kd | 6.38 ± 0.39 µM
CC[C@H](C)[C@H](NC(=O)[C@H](Cc1ccccc1)NC(=O)[C@H](CCC(=O)O)NC(=O)[C@H](CC(=O)O)NC(=O)[C@H](CC(=O)O)NC(=O)[C@H](CC(=O)O)NC(=O)[C@H](CC(=O)O)NC(=O)[C@H](CC(=O)O)NC(=O)[C@H](C)NC(=O)[C@H](C)NC(=O)[C@H](CC(=O)O)NC(=O)[C@H](CCC(=O)O)NC(=O)[C@@H](N)CC(=O)O)C(=O)N[C@@H](Cc1ccc(O)cc1)C(=O)N1CCC[C@H]1C(=O)N[C@@H](CC(N)=O)C(=O)N[C@@H](CO)C(=O)N[C@@H](Cc1ccc(O)cc1)C(=O)O | RNA-binding protein RRM4 (RRM4, Mycosarcoma maydis, UniProt A0A0D1DWZ5) | binding, isothermal titration calorimetry | Ustilago maydis | pH 8.0, 25 °C, with: MLLE domain 100 µM | Kd | 5.7 µM
CCCC/C=C/C(=O)N[C@@H](Cc1cc(F)cc(F)c1)C(=O)N[C@H]1COC(=O)[C@@H]2CCCN2C(=O)[C@H](C)NC(=O)[C@@H]2C[C@@H](C(C)C)CCN2C(=O)[C@@H]2CCCN2C1=O | ATP-dependent Clp protease proteolytic subunit (clpP, Escherichia coli, UniProt P0A6G7) | peptidase activity, activator |  | 30 °C, with: fluorogenic decapeptide 15 µM | Kd | 7.4 ± 0.31 µM
CC[C@H](C)[C@H](NC(=O)[C@H](CO)NC(=S)Nc1ccc2c(c1)C(=O)OC21c2ccc(O)cc2Oc2cc(O)ccc21)C(=O)N[C@@H](CCC(=O)O)C(=O)N[C@@H](CCCCN)C(=O)NCC(=O)NCC(=O)N[C@@H](CCP(=O)(O)O)C(=O)N[C@@H](CC(C)C)C(=O)N1CCC[C@H]1C(=O)N[C@@H](CCCCN)C(=O)N[C@H](C(=O)N[C@@H](Cc1c[nH]c2ccccc12)C(=O)N[C@@H](CC(C)C)C(=O)N[C@H](C(=O)N1CCC[C@H]1C(=O)N[C@@H](CCCNC(=N)N)C(=O)O)C(C)C)C(C)C | 14-3-3 protein beta/alpha (Homo sapiens, UniProt P31946) | binding, fluorescence anisotropy |  | pH 7.5, FITC-labelled phosphopeptide titration | Kd | 55.2 µM
O=C1NC2(CC2)COc2ncc(F)cc2[C@H]2COCCN2c2ccn3ncc1c3n2 |  |  | Sprague-Dawley rat, male, thymus | oral, 20 mg/kg/day, 4 weeks dosing, end of recovery | organ-to-body weight ratio | 0.09 ± 0.022%
CCCc1cc2cc(-n3nc(C4CC4)c4c3CC(C)(C)CC4=O)cc(N3CCC(O)CC3)c2c(=O)[nH]1 | HSP90AB1 | fluorescence polarization |  | 24 h, 4 °C, with: FITC-geldanamycin tracer | Kd | 0.785 µM
CCCC[C@H](N)C(=O)N[C@H]1CSCCCCCCCCCCSC[C@@H](C(=O)N[C@H](C(N)=O)[C@@H](C)O)NC(=O)[C@H](CCCCN)NC(=O)[C@H](CCCCN)NC(=O)[C@H](CCCCN)NC(=O)[C@H](Cc2ccc(O)cc2)NC(=O)[C@H](CC(N)=O)NC(=O)[C@H](CC(C)C)NC1=O | GTPase KRas, GDP-bound (KRAS, Homo sapiens, UniProt P01116, C118S/G12V) | binding, biolayer interferometry |  | GDP-bound form | Kd | 100 µM
CC(=O)NCC(=O)N[C@@H](CO)C(=O)N[C@@H](CS)C(=O)N[C@@H](CCCNC(=N)N)C(=O)N[C@@H](CCCCN)C(=O)N[C@@H](CCCNC(=N)N)C(=O)N[C@@H](CC(N)=O)C(=O)N[C@@H](CCCNC(=N)N)C(=O)N[C@@H](CO)C(=O)N1CCC[C@H]1C(=O)N[C@@H](CCC(=O)O)C(=O)N[C@@H](CCCNC(=N)N)C(N)=O | WD repeat-containing protein 5 (WDR5, Homo sapiens, UniProt P61964) | binding, isothermal titration calorimetry |  | pH 7.0, 20 °C | Kd | 14.7 µM
C=C1NC(=O)CNC(=O)[C@H](CCCNC(=N)N)NC(=O)[C@H](Cc2ccc(O)cc2)NC(=O)[C@H](CC(C)C)NC(=O)[C@H](CO)NC(=O)[C@H](CCCCN)NC(=O)[C@H](CC(N)=O)NC(=O)CNC(=O)[C@H](Cc2ccccc2)NC(=O)[C@H](Cc2c[nH]c3ccccc23)NC(=O)[C@H](Cc2c[nH]c3ccccc23)NC(=O)c2ccc(-c3nc(C(=O)OC)cs3)nc2-c2csc1n2 | TNIK | binding, SPR |  |  | Kd | 0.0097 µM

Some of these lines once more:
Structure (SMILES) | tested on | assay | test system | setting | measurement | value
CC(C)[C@@H]1NC(=O)[C@H](Cc2ccccc2)NC(=O)CSC[C@@H](C(N)=O)NC(=O)[C@H](CCC(=O)O)NC(=O)[C@H](CO)NC(=O)[C@H](Cc2c[nH]c3cccc(Cl)c23)NC(=O)[C@H](C(C)C)NC(=O)[C@H](C(C)C)NC(=O)[C@H](Cc2ccc(O)cc2)NC(=O)[C@H](CC(=O)O)NC(=O)[C@H](Cc2c[nH]c3ccccc23)NC(=O)[C@H](Cc2ccc(O)cc2)NC(=O)[C@H](Cc2c[nH]c3ccccc23)NC(=O)[C@H](CCC(=O)O)NC1=O | Interleukin-1 receptor-like 2, D1-D2 domains (IL1RL2, Homo sapiens, UniProt Q9HB29) | SPR |  | IL-36R domains D1-D2 | Kd | 0.106 ± 0.005 µM
CC[C@H](C)[C@H](NC(=O)[C@H](CCC(=O)O)NC(=O)[C@H](CCCNC(=N)N)NC(=O)[C@H](C)NC(=O)[C@H](Cc1c[nH]c2ccccc12)NC(=O)[C@H](CCC(N)=O)NC(=O)[C@H](CCC(=O)O)NC(=O)[C@H](CCC(=O)O)NC(=O)[C@H](CCC(=O)O)NC(=O)CNC(=O)[C@H](CCCNC(=N)N)NC(=O)CCCCCNC(=O)CCNC(=S)Nc1ccc2c(c1)C(=O)OC21c2ccc(O)cc2Oc2cc(O)ccc21)C(=O)NCC(=O)N[C@@H](C)C(=O)N[C@@H](CCC(N)=O)C(=O)N[C@@H](CC(C)C)C(=O)N[C@@H](CCCNC(=N)N)C(=O)N[C@@H](CCCNC(=N)N)C(=O)N[C@@H](CCSC)C(=O)N[C@@H](C)C(=O)N[C@@H](CC(=O)O)C(=O)N[C@@H](CC(=O)O)C(=O)N[C@@H](CC(C)C)C(=O)N[C@@H](CC(N)=O)C(=O)O | Bcl-2-like protein 1 (BCL2L1, Homo sapiens, UniProt Q07817) | binding, fluorescence polarization |  | with: fluorescein-labelled BH3 peptide | Kd | 0.103 µM
C[C@H]1NC(=O)[C@H](CCC(=O)N[C@@H](CCCCN)C(N)=O)NC(=O)[C@@H](C)NC(=O)[C@H](Cc2ccc(F)cc2)NC(=O)[C@H](Cc2c[nH]c3ccccc23)NC(=O)[C@H](CCCNC(=N)N)NC(=O)[C@H](Cc2ccc(O)cc2)NC(=O)[C@H](CCCNC(=N)N)NC1=O | Lysine--tRNA ligase (KARS1, Homo sapiens, UniProt Q15046) | binding |  |  | Kd | 2 µM
